Measured values gathered from unrelated publications.
Each line is one published result; not all experiments were run side by side. Numbers after ± are the reported error.
CA9: Carbonic anhydrase 9 (CA9, Homo sapiens, UniProt Q16790)
Integrin alpha-5/beta-1: Integrin alpha-5/beta-1 (Homo sapiens, UniProt P05556+P08648)
UniProt P08648, sequence (whole entry, looked up): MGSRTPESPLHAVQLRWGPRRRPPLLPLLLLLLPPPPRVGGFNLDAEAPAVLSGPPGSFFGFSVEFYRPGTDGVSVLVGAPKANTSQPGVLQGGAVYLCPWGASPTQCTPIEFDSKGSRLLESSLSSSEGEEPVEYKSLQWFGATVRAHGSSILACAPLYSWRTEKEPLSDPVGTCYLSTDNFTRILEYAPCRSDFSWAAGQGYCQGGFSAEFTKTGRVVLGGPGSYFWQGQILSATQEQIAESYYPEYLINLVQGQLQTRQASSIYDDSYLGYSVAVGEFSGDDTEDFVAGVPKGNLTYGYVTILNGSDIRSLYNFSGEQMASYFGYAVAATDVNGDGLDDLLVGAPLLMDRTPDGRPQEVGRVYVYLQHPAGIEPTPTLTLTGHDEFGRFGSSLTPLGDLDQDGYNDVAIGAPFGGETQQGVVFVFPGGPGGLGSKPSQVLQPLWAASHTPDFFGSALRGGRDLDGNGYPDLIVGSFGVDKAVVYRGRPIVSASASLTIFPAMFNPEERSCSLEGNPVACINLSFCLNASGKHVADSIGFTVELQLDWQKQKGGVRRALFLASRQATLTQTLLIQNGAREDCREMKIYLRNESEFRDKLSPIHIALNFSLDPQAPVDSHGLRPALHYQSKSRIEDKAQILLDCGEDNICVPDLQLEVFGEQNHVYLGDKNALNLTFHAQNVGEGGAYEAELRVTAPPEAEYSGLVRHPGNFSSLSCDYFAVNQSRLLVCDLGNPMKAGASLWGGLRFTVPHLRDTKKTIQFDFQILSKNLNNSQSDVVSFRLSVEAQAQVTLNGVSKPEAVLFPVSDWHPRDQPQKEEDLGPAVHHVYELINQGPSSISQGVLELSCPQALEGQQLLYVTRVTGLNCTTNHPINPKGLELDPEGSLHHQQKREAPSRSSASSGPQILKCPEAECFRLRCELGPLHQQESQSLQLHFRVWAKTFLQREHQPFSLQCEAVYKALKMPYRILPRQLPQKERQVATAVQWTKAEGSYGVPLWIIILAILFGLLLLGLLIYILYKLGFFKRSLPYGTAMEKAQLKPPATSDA
UniProt P05556, sequence (whole entry, looked up): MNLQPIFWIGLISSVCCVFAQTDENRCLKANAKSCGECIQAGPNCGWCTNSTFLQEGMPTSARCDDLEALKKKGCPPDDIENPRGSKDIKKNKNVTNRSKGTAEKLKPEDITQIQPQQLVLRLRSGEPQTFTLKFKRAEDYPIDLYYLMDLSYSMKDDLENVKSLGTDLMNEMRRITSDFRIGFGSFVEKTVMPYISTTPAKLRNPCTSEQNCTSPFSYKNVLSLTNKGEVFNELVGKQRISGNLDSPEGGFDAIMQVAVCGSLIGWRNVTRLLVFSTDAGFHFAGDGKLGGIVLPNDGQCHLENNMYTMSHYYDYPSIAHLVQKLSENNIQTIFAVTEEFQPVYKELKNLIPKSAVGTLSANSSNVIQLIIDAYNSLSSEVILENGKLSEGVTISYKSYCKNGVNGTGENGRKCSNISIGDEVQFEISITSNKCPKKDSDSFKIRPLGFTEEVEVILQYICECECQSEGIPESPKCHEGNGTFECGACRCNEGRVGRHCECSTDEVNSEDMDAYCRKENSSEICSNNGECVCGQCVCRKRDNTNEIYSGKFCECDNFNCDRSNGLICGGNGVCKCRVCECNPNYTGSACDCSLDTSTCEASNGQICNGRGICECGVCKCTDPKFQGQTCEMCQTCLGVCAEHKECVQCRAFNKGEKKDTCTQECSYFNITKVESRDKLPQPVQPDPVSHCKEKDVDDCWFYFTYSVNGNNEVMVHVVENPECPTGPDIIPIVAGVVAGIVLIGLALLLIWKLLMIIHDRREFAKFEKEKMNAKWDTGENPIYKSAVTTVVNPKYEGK
Methionyl-tRNA synthetase, putative: Methionyl-tRNA synthetase, putative (Trypanosoma brucei brucei, UniProt Q38C91)
CELF1 del215-384: CUGBP Elav-like family member 1 (CELF1, Homo sapiens, UniProt Q92879, del215-384)
UniProt Q92879, sequence (whole entry, unmodified, looked up): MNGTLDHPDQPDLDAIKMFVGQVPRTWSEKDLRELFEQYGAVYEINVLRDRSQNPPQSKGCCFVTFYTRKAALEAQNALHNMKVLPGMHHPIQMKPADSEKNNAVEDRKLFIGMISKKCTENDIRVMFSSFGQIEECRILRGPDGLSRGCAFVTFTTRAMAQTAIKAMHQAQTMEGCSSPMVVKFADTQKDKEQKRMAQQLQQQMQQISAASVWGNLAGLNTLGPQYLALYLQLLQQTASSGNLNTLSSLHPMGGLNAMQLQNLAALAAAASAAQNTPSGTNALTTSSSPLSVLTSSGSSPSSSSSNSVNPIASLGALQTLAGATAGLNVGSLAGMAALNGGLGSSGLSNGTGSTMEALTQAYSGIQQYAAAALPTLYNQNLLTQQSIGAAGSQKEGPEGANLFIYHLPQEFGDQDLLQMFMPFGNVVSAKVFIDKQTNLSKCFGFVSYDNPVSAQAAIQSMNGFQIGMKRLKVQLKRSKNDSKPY
BTK: Tyrosine-protein kinase BTK (BTK, Homo sapiens, UniProt Q06187)
UniProt Q06187, sequence (whole entry, looked up): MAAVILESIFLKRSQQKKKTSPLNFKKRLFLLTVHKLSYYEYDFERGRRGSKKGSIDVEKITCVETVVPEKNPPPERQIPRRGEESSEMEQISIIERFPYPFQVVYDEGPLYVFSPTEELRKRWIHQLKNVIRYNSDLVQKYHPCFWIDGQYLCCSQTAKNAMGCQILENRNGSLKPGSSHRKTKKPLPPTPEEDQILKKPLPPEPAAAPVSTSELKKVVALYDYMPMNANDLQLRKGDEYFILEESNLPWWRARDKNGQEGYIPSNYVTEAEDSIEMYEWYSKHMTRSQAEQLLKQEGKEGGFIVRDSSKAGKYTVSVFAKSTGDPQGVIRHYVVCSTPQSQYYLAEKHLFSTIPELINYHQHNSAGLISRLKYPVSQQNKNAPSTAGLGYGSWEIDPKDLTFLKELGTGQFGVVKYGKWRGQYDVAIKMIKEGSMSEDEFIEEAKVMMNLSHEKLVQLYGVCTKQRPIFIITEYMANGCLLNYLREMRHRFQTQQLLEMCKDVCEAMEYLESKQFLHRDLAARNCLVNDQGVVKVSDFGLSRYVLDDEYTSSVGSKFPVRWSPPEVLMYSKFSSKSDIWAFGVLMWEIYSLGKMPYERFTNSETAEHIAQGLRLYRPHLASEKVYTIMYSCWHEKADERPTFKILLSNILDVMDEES
Proteasome subunit beta type-9: Proteasome subunit beta type-9 (Homo sapiens, UniProt P28065)
UniProt P28065, sequence (whole entry, looked up): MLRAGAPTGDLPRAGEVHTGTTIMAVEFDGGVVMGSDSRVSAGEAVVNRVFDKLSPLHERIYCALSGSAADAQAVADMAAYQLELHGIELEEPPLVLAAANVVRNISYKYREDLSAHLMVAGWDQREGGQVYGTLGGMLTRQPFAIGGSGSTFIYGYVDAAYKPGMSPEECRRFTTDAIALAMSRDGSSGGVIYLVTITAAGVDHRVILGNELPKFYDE
F2: Prothrombin (F2, Homo sapiens, UniProt P00734)
UniProt P51817, sequence (whole entry, looked up): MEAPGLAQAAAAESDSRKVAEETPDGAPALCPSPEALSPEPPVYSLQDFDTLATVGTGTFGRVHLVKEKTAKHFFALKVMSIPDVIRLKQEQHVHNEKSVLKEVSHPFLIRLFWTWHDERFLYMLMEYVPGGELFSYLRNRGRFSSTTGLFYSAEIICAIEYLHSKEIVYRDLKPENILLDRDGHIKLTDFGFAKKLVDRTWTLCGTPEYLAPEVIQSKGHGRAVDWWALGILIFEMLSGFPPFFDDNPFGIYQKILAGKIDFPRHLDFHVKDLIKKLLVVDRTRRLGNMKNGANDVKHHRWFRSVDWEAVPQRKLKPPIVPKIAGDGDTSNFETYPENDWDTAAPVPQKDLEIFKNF
UniProt Q96HE7, sequence (whole entry, looked up): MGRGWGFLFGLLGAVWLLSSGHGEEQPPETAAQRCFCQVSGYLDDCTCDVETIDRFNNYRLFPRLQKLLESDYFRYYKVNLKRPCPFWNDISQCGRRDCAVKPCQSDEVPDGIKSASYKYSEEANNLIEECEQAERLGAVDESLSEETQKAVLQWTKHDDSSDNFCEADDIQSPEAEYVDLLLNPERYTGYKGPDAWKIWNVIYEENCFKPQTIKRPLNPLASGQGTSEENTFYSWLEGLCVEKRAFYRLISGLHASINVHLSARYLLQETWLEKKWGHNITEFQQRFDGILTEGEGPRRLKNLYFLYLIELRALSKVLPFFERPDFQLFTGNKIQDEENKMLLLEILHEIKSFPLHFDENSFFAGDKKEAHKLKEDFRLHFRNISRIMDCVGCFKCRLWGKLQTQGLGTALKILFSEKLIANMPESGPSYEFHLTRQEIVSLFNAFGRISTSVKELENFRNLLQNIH
UniProt Q96EB6, sequence (whole entry, looked up): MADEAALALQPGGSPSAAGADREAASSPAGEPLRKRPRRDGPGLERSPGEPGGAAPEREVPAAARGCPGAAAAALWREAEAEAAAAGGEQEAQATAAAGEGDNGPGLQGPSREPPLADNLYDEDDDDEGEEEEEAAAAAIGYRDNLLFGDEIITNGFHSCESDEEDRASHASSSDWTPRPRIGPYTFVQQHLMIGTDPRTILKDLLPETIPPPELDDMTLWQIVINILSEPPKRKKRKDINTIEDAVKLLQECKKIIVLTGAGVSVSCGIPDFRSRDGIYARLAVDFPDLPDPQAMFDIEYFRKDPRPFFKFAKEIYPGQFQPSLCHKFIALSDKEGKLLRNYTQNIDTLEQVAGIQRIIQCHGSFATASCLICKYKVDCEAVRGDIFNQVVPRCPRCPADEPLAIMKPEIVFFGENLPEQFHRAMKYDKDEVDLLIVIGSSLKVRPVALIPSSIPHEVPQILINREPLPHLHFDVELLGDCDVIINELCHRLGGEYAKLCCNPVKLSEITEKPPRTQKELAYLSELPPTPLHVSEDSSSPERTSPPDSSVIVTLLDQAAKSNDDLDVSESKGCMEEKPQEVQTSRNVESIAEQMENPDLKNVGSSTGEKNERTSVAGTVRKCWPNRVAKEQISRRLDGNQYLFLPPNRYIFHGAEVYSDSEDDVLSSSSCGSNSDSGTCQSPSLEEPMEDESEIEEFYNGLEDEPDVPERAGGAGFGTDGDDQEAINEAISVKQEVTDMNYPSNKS
UniProt O60760, sequence (whole entry, looked up): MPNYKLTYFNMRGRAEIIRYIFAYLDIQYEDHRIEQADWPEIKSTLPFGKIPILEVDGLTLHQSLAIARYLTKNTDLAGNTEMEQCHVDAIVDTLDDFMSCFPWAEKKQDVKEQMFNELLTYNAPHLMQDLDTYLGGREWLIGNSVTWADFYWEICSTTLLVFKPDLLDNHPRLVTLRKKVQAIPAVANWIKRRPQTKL

Structure (SMILES)	target	assay	test system	conditions	scale	IC50
COc1cc2c(cc1OC)[C@@H]1Cc3ccc(OC)c(OC)c3CN1CC2	HPGDS (Homo sapiens, UniProt O60760)	enzyme activity, inhibitor, fluorescence polarisation	–	1 h, room temperature	–	47800 ± 1100 nM
CC(NCC1(c2ccc(Br)cc2)CCOCC1)C(=O)Nc1ccc(S(N)(=O)=O)cc1 (centres unmarked)	CA9	enzyme activity, inhibitor	–	–	–	19.1 nM
Cn1ncc2cc(-c3cncc(Cl)c3N3CCC4(CCNC4=O)CC3)ccc21	Cyclin-dependent kinase 19, with cyclin C (CDK19, Homo sapiens, UniProt Q9BWU1)	ligand displacement	–	–	–	4 nM
Cc1nn(-c2cccc(N)c2)c(=O)c2cnc(Nc3ccc(N4CCNCC4)cc3)nc12	HIPK2 (Homo sapiens, UniProt Q9H2X6)	kinase activity, inhibitor, SelectScreen kinase profiling	–	–	–	> 10000 nM
COc1ccc(-c2cc(Cl)c(C(=O)N[C@@H](CNC(=O)CNC(=O)c3cccc(NC(=N)N)c3)C(=O)O)c(Cl)c2)cc1	Integrin alpha-5/beta-1	cell adhesion, inhibitor	SW480	together with: fibronectin 0.3 µg/mL	–	5.01 nM
CCCCCCC1CCC/C1=N\NC(N)=S (centres unmarked)	Scavenger receptor class B member 1 (Mus musculus, UniProt Q61009)	[3H]cholesteryl ester uptake from HDL, inhibitor	ldlA cells expressing mouse SR-BI	–	–	50 nM
Cc1ccc(N=C2CC(=O)c3sc(C)nc3C2=O)cc1	EHMT2 (Homo sapiens, UniProt Q96KQ7)	enzyme activity, inhibitor	–	–	–	3100 nM
C[C@@H](CNCc1cc(Cl)cc(Cl)c1)CNc1nc2nc(F)ccc2[nH]1	Methionyl-tRNA synthetase, putative	enzyme activity, inhibitor	–	–	–	< 10 nM
CCn1nc(Cl)c2c1-c1cnc(N)c(c1)O[C@H](C)c1cc(F)ccc1-c1nn(C)cc1C2	DSTYK (Homo sapiens, UniProt Q6XUX3)	enzyme activity, inhibitor, radiometric	–	–	–	250 nM
O=C(CNC(=O)c1cccc(NC2=NCCCN2)c1)NC[C@H](NC(=O)c1c(Cl)cc(-c2ccccc2)cc1Cl)C(=O)O	Integrin alpha-5/beta-1	cell adhesion, inhibitor	SW480	together with: fibronectin 0.3 µg/mL	–	5.01 nM
Cc1c(COc2cc(OCc3cccc(C#N)c3)c(CNC(C)(CO)CO)cc2Cl)cccc1-c1cccc(OCCCCCC(=O)NO)c1	Programmed cell death 1 ligand 1, with PD-1 (CD274, Homo sapiens, UniProt Q9NZQ7)	PD-1/PD-L1 binding, inhibitor, HTRF	–	–	–	20.4 nM
Sc1nc[nH]n1	CELF1 del215-384	CELF1-RNA binding, inhibitor, fluorescence polarization	–	20 nM CELF1, together with: 10 nM RNA	–	940 ± 80 nM
C=CC(=O)Nc1ccc(F)c(-c2ncnc3[nH]cc(C(=O)OCC)c23)c1	BTK	inhibitor, kinase	–	together with: ATP 1 mM	–	363 nM
COC1CCC(C[C@H](NC(=O)[C@H](CC(C)C)NC(=O)[C@H](Cc2ccc(CN)cc2)NC(=O)[C@H](Cc2ccccc2)N=[N+]=[N-])C(=O)[C@@]2(C)CO2)CC1 (some centres unmarked)	Proteasome subunit beta type-9	competitive ABPP	Raji cell lysate	–	–	761 nM
Cc1c[nH]c2nccc(-c3ccc(C(=O)N[C@@H]4c5c(F)cc(C(F)F)cc5C[C@@H]4O)cn3)c12	PRKX (Homo sapiens, UniProt P51817)	enzyme activity, inhibitor	–	–	–	6.8 nM
O=C(Cc1ccc(OCc2ccccc2)cc1)NC1(C(=O)O)CCN(C(=O)c2ccc(-c3cccc(Cl)c3)cc2)CC1	LPAR4 (Homo sapiens, UniProt Q99677)	antagonist, GloSensor cAMP	–	–	–	> 10000 nM
Cc1ccc2nc(C)n(/N=C/c3ccc(C(=O)O)cc3)c(=O)c2c1	F2	enzyme activity, inhibitor	–	–	–	116000 nM
CCOc1cc(CN2CCC3(CC2)CN(c2ccc(C(=O)O)cc2)C(=O)N3)c(C2CC2)cc1C	SSTR5 (Homo sapiens, UniProt P35346)	cAMP level, agonist, GloSensor	AD293	together with: CST17 EC80 and forskolin	–	2.24 nM
CCN(CC)CCCNc1c2c(c(C#N)c3nc4ccccc4n13)CCC2	ERO1-like protein alpha (Homo sapiens, UniProt Q96HE7)	enzyme activity, inhibitor, fluorescence	–	–	–	23800 nM
CCCCCCCCCCCCCC(=S)NCCCC[C@H](NS(C)(=O)=O)C(=O)N[C@@H](C)C(=O)N[C@@H](CCCNC(=N)N)C(N)=O	SIRT1 (Homo sapiens, UniProt Q96EB6)	enzyme activity, inhibitor, HPLC	–	–	–	2300 nM
CC(C)C[C@H](NC(=O)[C@H](Cc1ccc(CN)cc1)NC(=O)[C@H](Cc1ccccc1)N=[N+]=[N-])C(=O)N[C@@H](CC1CCC(C2CCCCC2)CC1)C(=O)[C@@]1(C)CO1 (some centres unmarked)	PSMB5 (Homo sapiens, UniProt P28074)	competitive ABPP	Raji cell lysate	–	–	3740 nM
Clc1cc(Cl)c2c(c1)[C@H](NCCCNc1nc3ncccc3[nH]1)CCN2	Methionyl-tRNA synthetase, putative	enzyme activity, inhibitor	–	–	–	< 10 nM
Cc1ccc(S(=O)(=O)N2N=Cc3ccsc3B2O)cc1	F2	enzyme activity, inhibitor	–	–	–	> 100000 nM
Cc1nn(-c2ccc(S(N)(=O)=O)cc2)c(C)c1CCC(=O)Nc1cccc(-c2cn(C)nn2)c1	CA9	enzyme activity, inhibitor	–	–	–	26.9 nM
CCN(CC)CC(=O)Nc1cccc(-n2cc(-c3ccc4ccc(-c5cn(-c6cccc(NC(=O)CN(CC)CC)c6)nn5)cc4c3)nn2)c1	BTK	enzyme activity, inhibitor	–	–	–	> 10000 nM
CC(=O)OC1CCC2(C)C(CCC3(C)C2CC=C2C4C(C)C(C)CCC4(C(=O)O)CCC23C)C1(C)C (centres unmarked)	UGT1A9 (Homo sapiens, UniProt O60656)	enzyme activity, inhibitor	–	–	–	> 100000 nM
S=c1[nH]nc(-c2cccs2)n1-c1ccccc1	CELF1 del215-384	CELF1-RNA binding, inhibitor, fluorescence polarization	–	20 nM CELF1, together with: 10 nM RNA	–	460 ± 70 nM
CC(C)C[C@H](NC(=O)[C@H](Cc1ccc(CN)cc1)NC(=O)[C@H](Cc1ccccc1)N=[N+]=[N-])C(=O)N[C@@H](CCC1CCCCC1)C(=O)[C@@]1(C)CO1	Proteasome subunit beta type-9	competitive ABPP	Raji cell lysate	–	–	> 10000 nM
N#Cc1c(N)nc2c(c1-c1ccc(F)cc1)Cc1cc(O)ccc1-2	Thymocyte selection-associated high mobility group box protein TOX, with KAT7 (Homo sapiens, UniProt O94900)	TOX-KAT7 binding, inhibitor, ELISA	–	–	no inhibition at 10 µM	> 10000 nM

Excerpt of the above:
Structure (SMILES)	target	assay	test system	conditions	scale	IC50
COC1CCC(C[C@H](NC(=O)[C@H](CC(C)C)NC(=O)[C@H](Cc2ccc(CN)cc2)NC(=O)[C@H](Cc2ccccc2)N=[N+]=[N-])C(=O)[C@@]2(C)CO2)CC1 (some centres unmarked)	Proteasome subunit beta type-9	competitive ABPP	Raji cell lysate	–	–	761 nM
Cc1c[nH]c2nccc(-c3ccc(C(=O)N[C@@H]4c5c(F)cc(C(F)F)cc5C[C@@H]4O)cn3)c12	PRKX (Homo sapiens, UniProt P51817)	enzyme activity, inhibitor	–	–	–	6.8 nM
